Measurements gathered from unrelated publications.
Every numbered part comes from another study and shows a few of its results, in no order. Substitutions count along the parent as printed.

Series 1
Target: CCNB2, cyclin fold, Cln2 fusion (human)
Method: yeast growth competition, sequencing
Medium: yeast
Setting: weak parent motif
Reference: not given
Reading: higher = stronger binding
Starting sequence: PKN2 docking peptide (human); VSAVQKLDFSDTM; partner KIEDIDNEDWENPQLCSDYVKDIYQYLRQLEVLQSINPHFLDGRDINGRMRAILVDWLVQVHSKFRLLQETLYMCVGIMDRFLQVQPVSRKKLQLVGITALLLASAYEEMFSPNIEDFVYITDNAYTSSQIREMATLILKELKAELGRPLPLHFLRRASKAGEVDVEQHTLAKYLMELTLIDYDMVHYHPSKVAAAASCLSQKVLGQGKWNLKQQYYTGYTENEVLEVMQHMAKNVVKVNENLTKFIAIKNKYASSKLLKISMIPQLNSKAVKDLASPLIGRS
Variant | normalised enrichment score
VSAVQKLDFSDTH [M13H] | 0.312
VSAVQKLDFSDAM [T12A] | 0.266
VSAKQKLDFSDTM [V4K] | -0.083
DSAVQKLDFSDTM [V1D] | -0.133

Series 2
Target: Ras GTPase-activating protein-binding protein 1, full length (G3BP1, Homo sapiens, UniProt Q13283)
Sequence of UniProt Q13283 (whole entry, looked up): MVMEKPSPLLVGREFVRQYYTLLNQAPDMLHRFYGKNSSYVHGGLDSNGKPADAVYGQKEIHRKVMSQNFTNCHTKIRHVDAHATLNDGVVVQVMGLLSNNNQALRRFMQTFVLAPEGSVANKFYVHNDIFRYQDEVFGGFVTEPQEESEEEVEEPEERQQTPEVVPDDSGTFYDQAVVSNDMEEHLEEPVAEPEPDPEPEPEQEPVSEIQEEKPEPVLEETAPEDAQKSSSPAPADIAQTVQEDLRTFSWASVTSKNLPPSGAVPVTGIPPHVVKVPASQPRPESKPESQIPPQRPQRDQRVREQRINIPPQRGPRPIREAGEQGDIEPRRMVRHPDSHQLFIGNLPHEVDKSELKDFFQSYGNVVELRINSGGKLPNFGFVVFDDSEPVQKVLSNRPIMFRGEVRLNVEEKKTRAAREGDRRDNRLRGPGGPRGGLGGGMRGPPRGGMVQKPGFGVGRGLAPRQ
Method: RNA Bind-n-Seq
Form: RNA
Medium: in vitro
Tested at: 200 nM
Setting: whole 134-nt RNA, ends assumed
Together with: 150 mM LiCl
Reference: input library
Reading: higher = stronger binding
All molecules: 7-deaza-guanosine replaces G
Sequence | log2 enrichment
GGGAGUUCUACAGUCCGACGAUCACCAUGCAGGUGGGCAUCUUUGGGAAGUGGGGCAAGGGGGGGAUAGGGAGGGGGGGAACACUUUGGGAACAGGUGGUCCCAGGUCGUUUCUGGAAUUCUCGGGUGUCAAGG | 0.157
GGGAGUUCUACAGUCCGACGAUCUGGGAGGUGGAUUUUGUUUAUUUUUUUAGCUCAUUUCCAGGGGUGGGAUUUUUUUUUUAAUAUGUGUCAUGAAUAAAGUUGUUUUUGAAAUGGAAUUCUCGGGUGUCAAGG | -0.348
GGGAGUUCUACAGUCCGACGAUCUCCUCAAGUCCUGUGCUACACAUCGUAUGUACCGAAUCGGGGCGGCGGCGGGAAAGUAUUAUGUUACGCCGUUCGGAUCUGCACUUCCAGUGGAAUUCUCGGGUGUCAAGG | 0.669
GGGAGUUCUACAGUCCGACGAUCUUAAGAAUUUGCUUAAAGAAGUGCGGAUCUAUGCACAGAAAUUUAUUGAUCGAGGAAAGGAUUUUAACUUGGAGUUGGCAAUUAAAACACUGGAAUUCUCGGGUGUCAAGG | -0.704
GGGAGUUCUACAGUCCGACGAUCCACAGACAACACGCACCCACACAGACACAUAGGGAAGGGGUUGGGAUGGGGACAGGGUGCACAGCAGGGCGGGGUAGGACCCCAGCCCCUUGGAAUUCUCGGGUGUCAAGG | 0.0219
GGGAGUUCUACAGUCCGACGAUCUAUCUUUAGAGGAGGAUCUGAUGGAUAUGGCAGUGGACGUGGAUUUGGGGAUGGCUAUAAUGGGUAUGGAGGAGGACCUGGAGGUGGCAAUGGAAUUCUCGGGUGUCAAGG | -0.157

Series 3
Target: Sal-like protein 4, full length isoform A (SALL4, Homo sapiens, UniProt Q9UJQ4, residues 1-1053)
Sequence of UniProt Q9UJQ4 (whole entry, looked up): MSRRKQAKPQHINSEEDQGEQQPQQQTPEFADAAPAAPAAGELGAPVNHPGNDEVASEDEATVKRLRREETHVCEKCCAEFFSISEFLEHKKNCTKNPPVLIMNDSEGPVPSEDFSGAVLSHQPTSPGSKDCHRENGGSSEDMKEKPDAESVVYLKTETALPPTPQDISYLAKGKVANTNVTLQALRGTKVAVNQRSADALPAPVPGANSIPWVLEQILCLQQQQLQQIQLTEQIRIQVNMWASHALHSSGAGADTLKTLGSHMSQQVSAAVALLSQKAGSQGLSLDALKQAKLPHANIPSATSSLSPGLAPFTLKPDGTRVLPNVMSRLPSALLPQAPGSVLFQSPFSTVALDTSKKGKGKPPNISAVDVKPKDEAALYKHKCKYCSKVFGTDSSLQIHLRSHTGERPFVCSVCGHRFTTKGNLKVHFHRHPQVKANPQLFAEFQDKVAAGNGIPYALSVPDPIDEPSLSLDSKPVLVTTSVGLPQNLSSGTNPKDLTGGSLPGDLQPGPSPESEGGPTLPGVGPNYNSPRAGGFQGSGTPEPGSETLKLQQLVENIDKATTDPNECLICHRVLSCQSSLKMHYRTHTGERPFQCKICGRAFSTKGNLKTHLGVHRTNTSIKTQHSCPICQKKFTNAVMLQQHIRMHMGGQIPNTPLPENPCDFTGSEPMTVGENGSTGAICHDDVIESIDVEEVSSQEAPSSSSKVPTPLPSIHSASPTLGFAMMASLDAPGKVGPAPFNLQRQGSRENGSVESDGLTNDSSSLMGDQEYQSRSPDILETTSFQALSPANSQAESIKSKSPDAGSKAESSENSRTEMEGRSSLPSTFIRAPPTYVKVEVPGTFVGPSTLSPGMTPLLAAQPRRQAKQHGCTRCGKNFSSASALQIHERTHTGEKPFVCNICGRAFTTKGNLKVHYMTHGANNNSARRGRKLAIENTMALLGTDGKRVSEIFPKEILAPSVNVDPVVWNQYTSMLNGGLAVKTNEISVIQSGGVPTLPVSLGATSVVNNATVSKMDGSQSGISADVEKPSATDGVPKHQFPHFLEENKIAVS
Method: universal PBM
Form: double-stranded DNA, one strand shown
Medium: in vitro
Tested at: 600 nM
Setting: 8-mer, flanks averaged, mean of replicates
Reading: higher = stronger binding
Sequence | E-score
CGCAGATA | 0.0576
AAGTTCTA | 0.103
ACCACTGC | -0.211
ACCTCCCT | -0.164
TGAATCAA | 0.246
GCCCAACA | -0.253
AGAGCATA | 0.131
CCACTCAC | -0.0789

Other studies, line by line
Substance | target | assay | system | setting | scale | measurement | value
PhoQ, residues 284 288 289 292 302 303 GASLAW | PhoP, residues 12 14 15 18 19 LWHVM (Escherichia coli, UniProt P23836) | Sort-seq, item: YFP reporter | E. coli | PhoQ-PhoP variant library, together with: 10 µM Mg2+ | reference: high Mg2+ state, higher = stronger signaling | fold induction | 10.6

Excerpt of the above (series 1):
Variant | normalised enrichment score
VSAVQKLDFSDAM [T12A] | 0.266
VSAKQKLDFSDTM [V4K] | -0.083
DSAVQKLDFSDTM [V1D] | -0.133
